Published values gathered from unrelated publications.
Each line is one published result; not all experiments were run side by side. ± gives the spread as reported.
TYK2: Non-receptor tyrosine-protein kinase TYK2 (TYK2, Homo sapiens, UniProt P29597)
KDR: Vascular endothelial growth factor receptor 2 (KDR, Homo sapiens, UniProt P35968)
PDGFRB: Platelet-derived growth factor receptor beta (PDGFRB, Homo sapiens, UniProt P09619)
ALDH1A1: Aldehyde dehydrogenase 1A1 (ALDH1A1, Homo sapiens, UniProt P00352)
PTGS2: Prostaglandin G/H synthase 2 (PTGS2, Ovis aries, UniProt P79208)
NMBR: Neuromedin-B receptor (NMBR, Homo sapiens, UniProt P28336)
Nucleoside transporter 1: Nucleoside transporter 1 (Plasmodium vivax, UniProt A5K8B0)

Structure (SMILES) | target | test | test system | setting | IC50 [µM]
O=C1C2=C(Nc3ccccc3SC2c2ccc(O)c(O)c2)c2ccccc21 (racemic) | Type II NADH dehydrogenase (Plasmodium falciparum, UniProt Q8I302) | enzyme activity, inhibitor, fluorescence NAD+ quantitation | recombinant enzyme |  | > 20
COc1ccc2c(c1OCc1ccccc1)CC(C(=O)O)N(c1nc3ccccc3s1)C2 (stereo not drawn) | AGTR2 (Homo sapiens, UniProt P50052) | cell-free assay, TR-FRET |  |  | ~0.2
COc1ccc2c(c1)C(=C1Nc3ccccc3C1=NOCC(O)CO)C(=O)N2 (stereo not drawn) | TYK2 | enzyme activity, inhibitor, radiometric |  |  | 0.0007
COc1cc2nccc(Oc3ccc(NC(=S)N(C)C)c(Cl)c3)c2cc1C(N)=O | KDR |  |  |  | 0.0786
COc1cc(O)c2c(c1)CCC21CCC(=O)CC1 | rat intestinal α-glucosidase | enzyme activity, inhibitor |  |  | 2200
COc1cc2nccc(Oc3ccc(NC(=S)NCC(C)(C)O)c(Cl)c3)c2cc1C(N)=O | PDGFRB |  |  |  | 0.697
CC(C)[C@H](NC(=O)[C@@H]1CCCN1C(=O)[C@H](CCCNC(=N)N)NC(=O)[C@H](CS)NC(=O)[C@H](Cc1c[nH]c2ccccc12)NC(=O)[C@H](CCCNC(=N)N)NC(=O)[C@@H](Cc1ccccc1)NC(=O)[C@H](Cc1c[nH]cn1)NC(=O)[C@H](CCC(=O)O)NC(=O)[C@H](CS)NC(=O)[C@H](CS)NC(=O)[C@H](CCCCN)NC(=O)[C@@H]1CC(=O)N[C@@H](CCCNC(=N)N)C(=O)NCC(=O)N[C@@H](CC(=O)O)C(=O)N[C@H](Cc2ccc(O)cc2)C(=O)N1)C(N)=O | Integrin alpha-V/beta-3 (Homo sapiens, UniProt P05106+P06756) | ligand displacement, radioligand |  |  | 0.403
COc1cc2nccc(Oc3ccc(NC(=S)NCCN4CCOCC4)c(Cl)c3)c2cc1C(N)=O | PDGFRB |  |  |  | 0.0417
Cn1c(=O)c2c(nc(CN3CCN(C(=O)C4CC4)CC3)n2Cc2ccccc2F)n(C)c1=O | ALDH1A1 |  |  |  | 0.39 ± 0.073
O=c1[nH]c(=S)[nH]c2c1C(c1cc(/N=N/c3ccc(F)c(Cl)c3)ccc1O)c1c([nH]c(=S)[nH]c1=O)N2 | PTGS2 | enzyme activity, inhibitor, ELISA |  |  | 3.87
C[C@H](NC(=O)[C@H](CC(=O)NCC(C)(C)C)NC(=O)C(=O)c1c[nH]c2ccccc12)C(=O)NCc1ccc(F)cc1F | PSMB6/PSMB7 (Homo sapiens, UniProt P28072+Q99436) | inhibitor |  |  | > 100
O=C(O)c1ccc(Cn2sc3ccccc3c2=O)cc1 | HDAC10 (Homo sapiens, UniProt Q969S8) | enzyme activity, inhibitor |  |  | > 10
COc1ccc(-c2cc(C(F)(F)F)nc(S(=O)(=O)CCC(=O)Nc3ccc(C)cc3)n2)cc1 | WRN (Homo sapiens, UniProt Q14191) | enzyme activity, inhibitor |  |  | 0.9
CN(C(=O)c1ccn2ncc(-c3ccc(C(N)=O)cc3)c2c1)c1ccc(C#N)cn1 | PKN2 (Homo sapiens, UniProt Q16513) | enzyme activity, inhibitor |  |  | > 10
O=C(O)CCCCC(=O)NNC(=O)c1ccccn1 | Egl nine homolog 1 (EGLN1, Homo sapiens, UniProt Q9GZT9) | inhibitor, AlphaScreen |  | bimodal curve, rough estimate, added: 2 µM 2-oxoglutarate | > 300
CC(C)CCC[C@@H](C)[C@H]1CCC([C@@H]2CC[C@H]3C[C@@H](O)CC[C@]3(C)[C@H]2O)[C@]1(C)CC(=O)O (stereo partly drawn) | Bile acid receptor (NR1H4, Homo sapiens, UniProt Q96RI1) | transactivation, antagonist, SHP promoter luciferase reporter | HEK293T | added: GW4064 10 µM | 3.4
CC(=O)N[C@@H](Cc1c[nH]c2ccccc12)C(=O)N[C@@H](Cc1c[nH]c2ccccc12)C(=O)N[C@@H](Cc1c[nH]c2ccccc12)C(=O)N[C@@H](Cc1c[nH]c2ccccc12)C(=O)N[C@@H](Cc1c[nH]c2ccccc12)C(=O)N[C@@H](Cc1c[nH]c2ccccc12)C(=O)NCCCC[C@@H]1NC(=O)[C@H](CCCNC(=N)N)NC(=O)[C@H](CCCNC(=N)N)NC(=O)[C@H](CCCNC(=N)N)NC(=O)[C@H](CCCNC(=N)N)NC(=O)[C@H](CCCNC(=N)N)NC(=O)[C@H](CCCNC(=N)N)NC1=O | Cyclin-dependent kinase 2, with cyclin A1 (CDK2, Homo sapiens, UniProt P24941) | enzyme activity, inhibitor |  |  | 1.27
COc1cccc(Cn2c(OC3CCN(C(=O)C4CC4)CC3)nc3c2c(=O)n(C)c(=O)n3C)c1 | ALDH1A1 |  |  |  | 1.8
C[C@@H](c1cc(OCC(F)F)ccn1)n1cnc2c(N)nc(Cl)nc21 | PDE1C (Homo sapiens, UniProt Q14123) | enzyme activity, inhibitor |  |  | 3.1
CCCc1c(OC)c(=O)c2c(O)c(/C=C/c3ccccc3)c(OC)c3c4c(OC)c(/C=C/c5ccccc5)c(O)c5c(=O)c(OC)c(CCC)c(c1c23)c54 | protein kinase C | enzyme activity, inhibitor |  | whole enzyme | 4
COc1cc2nccc(Oc3ccc(NC(=S)N4CCC(F)(F)CC4)c(Cl)c3)c2cc1C(N)=O | PDGFRB |  |  |  | 0.324

Structure (SMILES) | target | test | test system | setting | IC50 [µM]
OC[C@H]1[C@@H](O)[C@@H](O)CN1CCc1ccccc1 | Lysosomal alpha-mannosidase (Drosophila melanogaster, UniProt Q9VKV1) |  |  | pH 5.2, added: 2 mM pNP-Man | 1200
COc1cccc(CN(CCC(C)C)c2nc(C#N)nc(N3CCOCC3)n2)c1 | Procathepsin L (CTSL, Homo sapiens, UniProt P07711) | enzyme activity, inhibitor, fluorescence |  |  | 0.006
NC1CCCc2c1[nH]c1ccc(Cl)cc21 (racemic) | Metal cation symporter ZIP14, CD2 (Homo sapiens, UniProt Q15043) | transporter uptake, inhibitor, fluorescence |  |  | 10.6
O=S(=O)(Cc1ccccc1Cl)Nc1ccc(Oc2ncccc2-c2ccnc(N[C@H]3CCCNC3)n2)cc1F | Serine/threonine-protein kinase/endoribonuclease IRE2, RNase domain (ERN2, Homo sapiens, UniProt Q76MJ5) | RNase activity, inhibitor |  | added: XBP1 mini-substrate | 0.05 ± 0.002
CC1CC(=O)N(CCCCCCN)N=C1c1ccc(NC(=O)N2Cc3ccncc3C2)cc1 (stereo not drawn) | NAMPT (Homo sapiens, UniProt P43490) | enzyme activity, inhibitor |  |  | 0.0007
COc1cc2nccc(Oc3ccc(NC(=S)N[C@@H](C)CO)c(Cl)c3)c2cc1C(N)=O | PDGFRB |  |  |  | 0.0891
Oc1c(C(Nc2nc3ccccc3s2)c2ccccc2OCc2ccccc2)ccc2cccnc12 (stereo not drawn) | Genome polyprotein, protease (Dengue virus type 2, UniProt P14340) | enzyme activity, inhibitor, fluorescence |  |  | 3.25
NOCC(=O)O | CBS (Homo sapiens, UniProt P35520) | enzyme activity, inhibitor, fluorescence |  |  | ~3
CC(C)C[C@H]1CN[C@H](C(N)=O)CSSC[C@@H](N)C(=O)N[C@@H](CCC(N)=O)C(=O)N[C@@H](Cc2c[nH]c3ccccc23)C(=O)N[C@@H](C)C(=O)N[C@@H](C(C)C)C(=O)N[C@H](C)C(=O)N[C@@H](Cc2c[nH]cn2)C(=O)N1 | NMBR | inositol phosphate generation, antagonist | NCI-H1299 | added: neuromedin B | > 10
Cc1ccccc1/C=C/c1nc2ccccc2c(=O)[nH]1 | Nucleoside transporter 1 | yeast growth | purine auxotrophic yeast expressing target | 15 to 17 h, added: adenosine 1 mM | 0.159 ± 0.05
CCn1c(-c2nc3ccc(C(=O)N4CCCC(N)C4)cc3n2C)cc2ccccc21 (stereo not drawn) | PADI4 (Homo sapiens, UniProt Q9UM07) | binding, fluorescence polarisation |  | added: 10 nM tracer displacement, 2 mM Ca2+ | > 100
Cc1cccc(S[C@@H]2O[C@H](CO)[C@@H](O)[C@H](O)[C@H]2O)c1 | SLC5A1 (Homo sapiens, UniProt P13866) | transporter uptake, inhibitor, radiometric |  |  | 11
COc1cc2nccc(Oc3ccc4c(c3)CN(CC(F)F)C(=O)N4)c2cc1C(N)=O | KDR |  |  |  | 0.376
Cn1cc(C(=O)C(=O)Nc2ccc(C(=O)N3CCCC3)cc2)c2ccccc21 | Nucleoside transporter 1 | [3H]adenosine uptake | target-expressing yeast |  | 0.0317 ± 0.0076
COC(=O)C1=CNC=C(C(=O)OC)C1c1ccc(F)c(C(F)(F)F)c1 | KCNN4 (Homo sapiens, UniProt O15554, T250S/V275A) | ion current, inhibitor, patch clamp |  |  | 2
O=C1CC(c2ccccc2)N1S(=O)(=O)c1cccc(Br)c1 (stereo not drawn) | Rhomboid protease AarA (Providencia stuartii, UniProt P46116) | enzyme activity, inhibitor, fluorescence |  |  | < 20
CSCC[C@H](NC(=O)[C@H](Cc1ccccc1)NC(=O)[C@H](Cc1c[nH]cn1)NC(=O)CNC(=O)[C@@H](NC(=O)[C@H](C)NC(=O)[C@H](Cc1c[nH]c2ccccc12)NC(=O)[C@H](CC(C)C)NC(=O)[C@@H]1CCC(=O)N1)[C@@H](C)O)C(N)=O | NMBR | NMBR activity, cell-based |  |  | < 0.001
Cc1ccc2oc(-c3c4c(N)n[nH]c(=O)c4nn3-c3ccc(NC(=O)/C=C/CN(C)C)cc3)c(C)c2c1 | MET (Homo sapiens, UniProt P08581) | enzyme activity, inhibitor, ELISA |  |  | > 1
CCNC(=O)NC(=O)COC(=O)c1cn(-c2ccccc2)nc1-c1ccc(C)cc1C | PTGS2 | enzyme activity, inhibitor, absorbance |  |  | 0.69
Cc1cnc(Nc2cc(C)c(C)c(C)c2)nc1Nc1ccc2oc(=O)[nH]c2c1 | TYK2 | enzyme activity, inhibitor |  | added: ATP 1 mM | 0.103
COc1cc2nccc(Oc3ccc(NC(=S)Nc4cccnc4)c(Cl)c3)c2cc1C(N)=O | KDR |  |  |  | 0.107

Repeated from above:
Structure (SMILES) | target | test | test system | setting | IC50 [µM]
CCn1c(-c2nc3ccc(C(=O)N4CCCC(N)C4)cc3n2C)cc2ccccc21 (stereo not drawn) | PADI4 (Homo sapiens, UniProt Q9UM07) | binding, fluorescence polarisation |  | added: 10 nM tracer displacement, 2 mM Ca2+ | > 100
Cc1cccc(S[C@@H]2O[C@H](CO)[C@@H](O)[C@H](O)[C@H]2O)c1 | SLC5A1 (Homo sapiens, UniProt P13866) | transporter uptake, inhibitor, radiometric |  |  | 11
COc1cc2nccc(Oc3ccc4c(c3)CN(CC(F)F)C(=O)N4)c2cc1C(N)=O | KDR |  |  |  | 0.376
Cn1cc(C(=O)C(=O)Nc2ccc(C(=O)N3CCCC3)cc2)c2ccccc21 | Nucleoside transporter 1 | [3H]adenosine uptake | target-expressing yeast |  | 0.0317 ± 0.0076
COC(=O)C1=CNC=C(C(=O)OC)C1c1ccc(F)c(C(F)(F)F)c1 | KCNN4 (Homo sapiens, UniProt O15554, T250S/V275A) | ion current, inhibitor, patch clamp |  |  | 2
O=C1CC(c2ccccc2)N1S(=O)(=O)c1cccc(Br)c1 (stereo not drawn) | Rhomboid protease AarA (Providencia stuartii, UniProt P46116) | enzyme activity, inhibitor, fluorescence |  |  | < 20
CSCC[C@H](NC(=O)[C@H](Cc1ccccc1)NC(=O)[C@H](Cc1c[nH]cn1)NC(=O)CNC(=O)[C@@H](NC(=O)[C@H](C)NC(=O)[C@H](Cc1c[nH]c2ccccc12)NC(=O)[C@H](CC(C)C)NC(=O)[C@@H]1CCC(=O)N1)[C@@H](C)O)C(N)=O | NMBR | NMBR activity, cell-based |  |  | < 0.001
